Assay results gathered from unrelated publications.
Each numbered part is a random draw from the data of one study; scales do not carry over between parts.

Series 1
Target: RNA binding protein fox-1 homolog 2, RRM domain, GST-SBP tag (RBFOX2, Homo sapiens, UniProt O43251-10, residues 100-194)
Method: RNA Bind-n-Seq
Molecule type: RNA
Medium: in vitro
Concentration: 365 nM
Notes: natural RNA segment, single round, ends assumed
Relative to: no-protein control
Reading: higher = stronger binding
Target sequence (chain): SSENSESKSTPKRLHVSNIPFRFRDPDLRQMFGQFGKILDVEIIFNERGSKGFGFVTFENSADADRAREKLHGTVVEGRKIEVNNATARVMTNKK
Strand | RBNS enrichment (R)
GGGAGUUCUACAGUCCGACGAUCUAUUCUGAACAAACGCUUGCACUGACCAAAGCUUGUGUUUAGCGUGUGUUUAGCAUAGGUGCUGUAGUUGGAGUGGGCCCCACCUCUGCUCCUUUCAGUGUUCUUGCUGUUGGAAUUCUCGGGUGCCAA | 0.278
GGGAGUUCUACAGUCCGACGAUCUUGGCCAACAAUCCUUUCUGCCCACUUCCCCUUCCCCAAUUACUAUUCCCUUUGACUUCAGCUGCCUGAAACAGCCAUGUCCAAGUUCUUCACCUCUAUCCAAAGAACUUUGGAAUUCUCGGGUGCCAA | 0.691
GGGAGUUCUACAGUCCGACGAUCUCCAAAAAAUGACCGUGAGGGGCCUCAGUGAGACCAGAUUGUGUCAUUUGGCUCCACCUUCAUCUUGCAGAGCCAGCUGAUCUCAGAUUGCCAAGAAACUAGAAGCCACUUGGAAUUCUCGGGUGCCAA | 0.282
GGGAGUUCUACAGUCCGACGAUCUGAAGAGAAAUGAGACGUGAUUAUACUACUUUUUCAAUUGCAGGUUUAAGGAGUUCAGAUUUAAUGACCAAAGUCAUACAGAUCAUGGAAUCUGUCGUCGUCUUAUACAGUGGAAUUCUCGGGUGCCAA | 0.284
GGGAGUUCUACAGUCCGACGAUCUGUACUCCCCUUUGCUCCAUCAGUUAUCAGGAAGGAGAACUAAGGAGGGAGGAAGCUUAUUAGGUUCACUGUUGAAUGAUGAUUGAAGAGUACCUGCUGCUGUAUCUUGGUGGAAUUCUCGGGUGCCAA | 1.5
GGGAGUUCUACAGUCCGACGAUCCUCGAGAUCAGAUCAUAACUCAUUUGCCUAGAGGCAGCAGAAAUCUGAUCCUGCUACUGGAGCUUAAAAUAACAAGUAAAGAAAAGUGUUAGAAACAAAGCUAAAAUUUUUGGAAUUCUCGGGUGCCAA | 0.63
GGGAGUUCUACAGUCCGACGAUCUUAUUUUACGCAUGGUCCAUAAAAUGAUUUGAUACUCUUUUAAAGUGUAUGUGGUCCAUUAGAAAGGUUAAUUCCAACAAAGCAUUUAGUUUACAGAUCAUAAUCCUAAGUGGAAUUCUCGGGUGCCAA | 5.04
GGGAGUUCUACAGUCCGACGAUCGGAAAUUAUUUUAGGGCUGAGAUAGGGGUGGAACGAGCAGGCUUGUUUCCACCAAUAGUGCCAAGAAGACACUGCCUGAUUCUUCCCCGGGAGGAGUGACUCCUCUGAAGUGGAAUUCUCGGGUGCCAA | 0.237
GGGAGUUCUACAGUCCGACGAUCUAUUAAAUAACCAUUAGAAAAGCUCAGUAGACUUAUUUGAGAAAUUAAGCCUUGUGCAGGAUGAUGGAUUUGACUUACUAAUGUACUGUCACAGACAAAUAUGGGUAGUUUGGAAUUCUCGGGUGCCAA | 0.325

Series 2
Target: RING finger protein unkempt homolog, zinc fingers 1-6, GST-SBP tag (UNK, Homo sapiens, UniProt Q9C0B0, residues 30-357)
Method: RNA Bind-n-Seq
Molecule type: RNA
Medium: in vitro
Concentration: not given
Notes: RNA with constant flanks, human-mouse chimeric sites, ends assumed
Relative to: input RNA pool
Reading: higher = stronger binding
Residues (chain): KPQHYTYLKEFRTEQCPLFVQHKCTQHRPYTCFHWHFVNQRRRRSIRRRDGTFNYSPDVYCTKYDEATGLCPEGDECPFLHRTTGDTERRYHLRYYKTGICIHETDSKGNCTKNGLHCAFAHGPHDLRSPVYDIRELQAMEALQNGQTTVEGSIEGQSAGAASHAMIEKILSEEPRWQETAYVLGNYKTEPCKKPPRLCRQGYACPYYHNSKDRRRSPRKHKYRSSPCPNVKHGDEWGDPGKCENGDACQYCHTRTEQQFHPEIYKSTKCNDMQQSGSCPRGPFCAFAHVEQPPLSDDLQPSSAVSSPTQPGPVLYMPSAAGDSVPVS
Strand | bound/input enrichment [ratio]
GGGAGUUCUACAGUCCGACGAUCGUGACUGGUGUUAAGAUUUCCCCUCAGAAAAGAACUGCAGUAGUCACCAUAAUUCCAUCUGUGGUGAGUGCCAGUCAGAUAAAAGAGCUGGUCCCAGACCUCAGUUUAGACAUGGGAACUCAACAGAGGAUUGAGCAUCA | 0.242
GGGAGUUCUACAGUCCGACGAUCCAGGGCACAGCACCUACCCCCUCCUCCUUUCCACACCUGCAAACUCUUUUACUUGGGCUGAAUAUUUAGUGUUAAUUCAUCUCAGCUUUGAGGGCUCCUGUGGCAAAUUCCCGGAUUAAACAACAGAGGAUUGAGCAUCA | 0.64
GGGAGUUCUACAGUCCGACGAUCGAAAGAGAACUAAAGCAACUAAUAGAGGAAGAGGAUUGCAAAGAGAAUUUCAUAGAGAAACUAGGAUUUAUUAGCAAACAUGAGUUAUAUUCCAGAGCGUCUCAGAAACCCCAGCCAAACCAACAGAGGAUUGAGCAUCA | 6.64
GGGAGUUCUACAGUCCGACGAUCGAUGAUAAUCACACAAACAAGUCACUGUUACAUGACCAGAGUUGUACUUCUUUUCCUGAUUAAUAUUCUCCCUGGAACCACUGGUCAAGGGGAAUCAAGACGACAAGAACCCGGGGACUUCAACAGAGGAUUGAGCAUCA | 0.153
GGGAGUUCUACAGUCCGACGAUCAGAAUCUUGGGACUGUUUUACUUAAUUGGUCAUUGGUAGCUUAACAAACAUGGAGAUAAGAUUAGAAGUUUUGACAUCAACAGGUAUUAAGCAGAAAAAACCAUGGCCACGUGUCUCCUGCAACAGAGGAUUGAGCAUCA | 0.23
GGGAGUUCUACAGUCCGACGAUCGCUCCUCCCCGCUCUGCAGCCUGGGGACACUGGGCUGGGACCAGAAUCCAGCUUUCUUUUAAUAGUGUCAGUGUAACUUCUUUUUCUGACAUUUCAUUUUUUUUAAAUAGUGUAUUUUUUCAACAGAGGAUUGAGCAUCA | 22.5
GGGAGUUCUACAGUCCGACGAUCGGCCUGGGACCGUCCUGGGCUAGUACAAAUAGCGGCAGUGGAGGCUCGAGAGGAAAGUUGUUAGUGGGAGGCAGUGGUAGAGGCCGUCAUGUACGGUCCUUUACUCGUAAAAAUCCUUCUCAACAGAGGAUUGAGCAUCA | 0.19
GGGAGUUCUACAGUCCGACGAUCUGGCGCCUGCGCUCCCCACUCGUGUUUUUAAGUGUAUUUUUAUAAGAUACAUGUAUUUACAAUUGAGCUUUUGUUACAUAAUGCUGAAAUGCUACUGCAAUAUUAUGAAAAAUGUUAAAUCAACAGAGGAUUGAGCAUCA | 0.176
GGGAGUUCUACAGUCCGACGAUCGAGCCCAGCCGGCAGUUUGUAAAGGACUCAAUUCGGCUGGUUAAAAGAUGCACCAAACCUGAUAGAAAAGAAUUCCAGAAGAUUGCCAUGGCAACAGCUAUAGGAUUUGCUAUCAUGGGACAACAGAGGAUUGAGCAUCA | 0.158
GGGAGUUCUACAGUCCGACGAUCUCAAGGGCACGAGCAUCAGCCAUGCCUUUCCUUGACAUACAGAAAAAGCUGGGCAUCAGCCUGGACCGGCACUUUAUGUUCCUAAGCGCAGAACAGCCCUAUAAGAACGCCGCUCGGUGCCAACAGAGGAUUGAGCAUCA | 0.0934
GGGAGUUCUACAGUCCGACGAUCGAGUCGAGCAAACUUGAAACAAUUCGUUAUCUUGCAGCCUCAGUGUUCACUUGCUUGGCGAUAGCAUUGGGGUUUUAUAUAGAUUCUGGAAGUAGUAGACGAUGAUGCUGCCGCUGCUGCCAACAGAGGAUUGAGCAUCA | 0.608

Series 3
Target: Interferon regulatory factor 5, full length, phosphomimetic (IRF5, Homo sapiens, UniProt Q13568-2, residues 1-514, S451D/S453D/S456D/S462D)
Method: protein-binding microarray
Molecule type: double-stranded DNA, one strand shown
Medium: in vitro
Concentration: 940 nM top
Notes: 60-bp whole probe
With: salmon DNA 0.4 mg/ml
Relative to: random background probes
Reading: higher = stronger binding
Constant ends, left off below: GCCTAGCAC … GTCTTGATTCGCTTGACGCTGCTG
Strand | fitted relative affinity [z-score]
GACCAGGGGCCACAGCCTCAGTGCTAG | -0.872
GACCGACTGGGGACTGGGGACGTGCTA | -0.0787
GACGGACTGGGTCTCAGGACGTGCTAG | -0.615
GACGGACTGGGGACTGGAGACGTGCTA | -0.265
TCAAAGCAAAAATGATTACTGTGCTAG | 0.0361
TGTGCTTTCCTGATGGTCCTGTGCTAG | 0.238
TGTGTTATTAAATTTTCACGGGTGCTA | 0.0428
TTAGAACTGGGGCCTGGATTAGTGCTA | -0.46
ATATATGTGTATATATAATAGTGCTAG | 0.344
GACGGACTGGACTTTCGTGACGTGCTA | -0.146
GACGGTATCGGGTCTCGGGACGTGCTA | 4.76
TTAGGTATCGGATTGGGTTAGTGCTAG | 4.7
GACGGTCTCGGACTGGGTACGTGCTAG | 0.711
GACGGTATCCTTCTCCTGTCGTGCTAG | 1.49
ACCCTCATTCTACTATCGATGTGCTAG | 1.77
TTAGATCTCCTTTTCCTTTAGTGCTAG | 1.01
TTAGGACTGGACAGTGGGTTAGTGCTA | -0.616
TTAGATTTTAGTTTCGATTAGTGCTAG | 10.1
TCATGCTTGCGTCTGGGACTGTGCTAG | -0.311
TCAGGACTGCTTCTCCTTTAGTGCTAG | -0.0379
GACGAACTGAGTATCGAGCCGTGCTAG | 0.61
GACGGTATCCTTCTCCTGATGTGCTAG | 0.443

Series 4
Target: Histone acetyltransferase KAT6A, both winged helices, GST fusion (KAT6A, Homo sapiens, UniProt Q92794, residues 1-181)
Method: protein binding microarray
Molecule type: double-stranded DNA, one strand shown
Medium: in vitro
Concentration: not given
Notes: 8-mer, flanks averaged, mean of 2 arrays, mostly near background
Relative to: not given
Reading: higher = stronger binding
Residues (chain): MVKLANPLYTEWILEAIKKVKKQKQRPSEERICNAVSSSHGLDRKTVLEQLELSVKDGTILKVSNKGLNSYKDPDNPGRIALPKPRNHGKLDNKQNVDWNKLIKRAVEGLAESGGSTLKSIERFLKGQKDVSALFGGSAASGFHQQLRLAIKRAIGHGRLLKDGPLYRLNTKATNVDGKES
Strand | E-score
CTCTACGC | -0.07
CCGCATGC | 0.227
ACGAAAGC | 0.0786
GGTGAACC | 0.121
AGTCCACG | 0.074
ATGGTGCA | -0.12
GATGCATC | -0.14
GCACACAA | -0.0722
GCGAAGGA | 0.0635
CCTCGTGA | -0.112
AAACAAGC | 0.0298
GCGTCCAC | 0.204
AAATGTAT | -0.0182
GAGGCTAC | -0.172
ACGTCGTA | 0.0137
ATGCCACA | -0.257
TGTTATAA | -0.00885
ACGTCCAA | -0.00585
CACCTAAC | -0.113
AAATTATG | -0.00921
GCTCGCAC | 0.161
AATCCCCT | -0.328
AAGACACG | 0.201
CCGTCGGC | 0.42
CCATCGTC | -0.102

Some of these lines once more (series 4):
Strand | E-score
GATGCATC | -0.14
GCACACAA | -0.0722
GCGAAGGA | 0.0635
CCTCGTGA | -0.112
AAACAAGC | 0.0298
GCGTCCAC | 0.204
